Assay results from different studies.
Each line is one published result; not all experiments were run side by side. Positions count from the first letter of the parent shown. ± marks the error that the study gave.
D2 helicase 1-928: D2 helicase 1-928 (Escherichia phage T5, UniProt Q6QGH9)
UniProt Q6QGH9, sequence (whole entry, looked up): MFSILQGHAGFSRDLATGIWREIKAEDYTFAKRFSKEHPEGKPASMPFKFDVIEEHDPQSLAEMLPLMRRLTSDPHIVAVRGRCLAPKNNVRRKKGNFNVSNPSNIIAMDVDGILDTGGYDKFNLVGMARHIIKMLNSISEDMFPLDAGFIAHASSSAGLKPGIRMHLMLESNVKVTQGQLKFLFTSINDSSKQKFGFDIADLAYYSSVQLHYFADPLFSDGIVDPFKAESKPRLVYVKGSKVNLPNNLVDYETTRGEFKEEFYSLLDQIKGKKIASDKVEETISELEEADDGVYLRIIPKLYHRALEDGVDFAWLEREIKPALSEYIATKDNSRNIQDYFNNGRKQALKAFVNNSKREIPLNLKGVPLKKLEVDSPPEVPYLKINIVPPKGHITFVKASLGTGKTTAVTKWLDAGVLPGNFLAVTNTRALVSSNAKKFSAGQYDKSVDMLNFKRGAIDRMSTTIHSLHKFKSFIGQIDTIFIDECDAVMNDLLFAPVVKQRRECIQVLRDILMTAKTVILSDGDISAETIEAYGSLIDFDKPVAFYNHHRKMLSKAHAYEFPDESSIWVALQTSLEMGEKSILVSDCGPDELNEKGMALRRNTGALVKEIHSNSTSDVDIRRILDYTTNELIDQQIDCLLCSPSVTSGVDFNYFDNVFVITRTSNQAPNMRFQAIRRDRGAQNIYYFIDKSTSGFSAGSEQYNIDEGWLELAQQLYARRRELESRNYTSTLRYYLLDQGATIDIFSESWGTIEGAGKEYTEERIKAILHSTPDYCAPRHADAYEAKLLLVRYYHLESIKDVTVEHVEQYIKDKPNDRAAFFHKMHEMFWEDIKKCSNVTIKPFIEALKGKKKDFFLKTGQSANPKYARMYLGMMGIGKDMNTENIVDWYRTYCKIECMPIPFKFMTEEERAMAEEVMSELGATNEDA
B1: ACE C-domain (Mus musculus, UniProt P09470); chain LDPGLQPGNFSPDEAGAQLFAESYNSSAEVVMFQSTVASWAHDTNITEENARRQEEAALVSQEFAEVWGKKAKELYESIWQNFTDSKLRRIIGSIRTLGPANLPLAQRQQYNSLLSNMSRIYSTGKVCFPNKTATCWSLDPELTNILASSRSYAKLLFAWEGWHDAVGIPLKPLYQDFTAISNEAYRQDDFSDTGAFWRSWYESPSFEESLEHIYHQLEPLYLNLHAYVRRALHRRYGDKYVNLRGPIPAHLLGDMWAQSWENIYDMVVPFPDKPNLDVTSTMVQKGWNATHMFRVSEEFFTSLGLSPMPPEFWAESMLEKPTDGREVVCHASAWDFYNRKDFRIKQCTRVTMEQLATVHHEMGHVQYYLQYKDLHVSLRRGANPGFHEAIGDVLALSVSTPAHLHKIGLLDHVTNDIESDINYLLKMALEKIAFLPFGYLVDQWRWGVFSGRTPPSRYNFDWWYLRTKYQGICPPVARNETHFDAGAKFHIPNVTPYIRYFVSFVLQFQFHQALCKEAGHQGPLHQCDIYQSAQAGAKLKQVLQAGCSRPWQEVLKDLVGSDALDAKALLEYFQPVSQWLEEQNQRNGEVLGWPENQWRPPLPDNYPEGIDLETDEAKADRFVEEYDRTAQVLLNEYAEANWQYNTNITIEGSKILLEKSTEVSNHTLKYGTRAKTFDVSNFQNSSIKRIIKKLQNLDRAVLPPKELEEYNQILLDMETTYSLSNICYTNGTCMPLEPDLTNMMATSRKYEELLWAWKSWRDKVGRAILPFFPKYVEFSNKIAKLNGYTDAGDSWRSLYESDNLEQDLEKLYQELQPLYLNLHAYVRRSLHRHYGSEYINLDGPIPAHLLGNMWAQTWSNIYDLVAPFPSAPNIDATEAMIKQGWTPRRIFKEADNFFTSLGLLPVPPEFWNKSMLEKPTDGREVVCHPSAWDFYNGKDFRIKQCTSVNMEDLVIAHHEMGHIQYFMQYKDLPVTFREGANPGFHEAIGDIMALSVSTPKHLYSLNLLSTEGSGYEYDINFLMKMALDKIAFIPFSYLIDQWRWRVFDGSITKENYNQEWWSLRLKYQGLCPPVPRSQGDFDPGSKFHVPANVPYVRYFVSFIIQFQFHEALCRAAGHTGPLHKCDIYQSKEAGKLLADAMKLGYSKPWPEAMKLITGQPNMSASAMMNYFKPLTEWLVTENRRHGETLGWPEYNWAPNTARAEGSTAESNRVNFLGLYLEPQQARVGQWVLLFLGVALLVATVGLAHRLYNIRNHHSLRRPHRGPQFGSEVELRHS
P1: ABI1; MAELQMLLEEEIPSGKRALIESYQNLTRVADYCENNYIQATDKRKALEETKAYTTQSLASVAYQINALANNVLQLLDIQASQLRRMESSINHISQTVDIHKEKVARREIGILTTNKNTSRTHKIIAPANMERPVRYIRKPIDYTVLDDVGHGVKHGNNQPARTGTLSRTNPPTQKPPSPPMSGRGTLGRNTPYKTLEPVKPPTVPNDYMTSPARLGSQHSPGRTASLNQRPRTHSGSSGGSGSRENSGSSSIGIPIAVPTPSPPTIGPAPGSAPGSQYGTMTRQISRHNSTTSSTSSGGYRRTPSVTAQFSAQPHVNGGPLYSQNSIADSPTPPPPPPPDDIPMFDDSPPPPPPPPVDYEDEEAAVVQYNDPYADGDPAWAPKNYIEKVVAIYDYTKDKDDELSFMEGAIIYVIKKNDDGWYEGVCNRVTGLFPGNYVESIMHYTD
UniProt Q96P16, sequence (2-137, looked up): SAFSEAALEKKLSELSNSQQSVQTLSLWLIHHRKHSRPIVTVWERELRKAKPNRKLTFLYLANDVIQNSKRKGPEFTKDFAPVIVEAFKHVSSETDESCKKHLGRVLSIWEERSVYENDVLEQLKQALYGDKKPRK
UniProt Q5VT52, sequence (whole entry, looked up): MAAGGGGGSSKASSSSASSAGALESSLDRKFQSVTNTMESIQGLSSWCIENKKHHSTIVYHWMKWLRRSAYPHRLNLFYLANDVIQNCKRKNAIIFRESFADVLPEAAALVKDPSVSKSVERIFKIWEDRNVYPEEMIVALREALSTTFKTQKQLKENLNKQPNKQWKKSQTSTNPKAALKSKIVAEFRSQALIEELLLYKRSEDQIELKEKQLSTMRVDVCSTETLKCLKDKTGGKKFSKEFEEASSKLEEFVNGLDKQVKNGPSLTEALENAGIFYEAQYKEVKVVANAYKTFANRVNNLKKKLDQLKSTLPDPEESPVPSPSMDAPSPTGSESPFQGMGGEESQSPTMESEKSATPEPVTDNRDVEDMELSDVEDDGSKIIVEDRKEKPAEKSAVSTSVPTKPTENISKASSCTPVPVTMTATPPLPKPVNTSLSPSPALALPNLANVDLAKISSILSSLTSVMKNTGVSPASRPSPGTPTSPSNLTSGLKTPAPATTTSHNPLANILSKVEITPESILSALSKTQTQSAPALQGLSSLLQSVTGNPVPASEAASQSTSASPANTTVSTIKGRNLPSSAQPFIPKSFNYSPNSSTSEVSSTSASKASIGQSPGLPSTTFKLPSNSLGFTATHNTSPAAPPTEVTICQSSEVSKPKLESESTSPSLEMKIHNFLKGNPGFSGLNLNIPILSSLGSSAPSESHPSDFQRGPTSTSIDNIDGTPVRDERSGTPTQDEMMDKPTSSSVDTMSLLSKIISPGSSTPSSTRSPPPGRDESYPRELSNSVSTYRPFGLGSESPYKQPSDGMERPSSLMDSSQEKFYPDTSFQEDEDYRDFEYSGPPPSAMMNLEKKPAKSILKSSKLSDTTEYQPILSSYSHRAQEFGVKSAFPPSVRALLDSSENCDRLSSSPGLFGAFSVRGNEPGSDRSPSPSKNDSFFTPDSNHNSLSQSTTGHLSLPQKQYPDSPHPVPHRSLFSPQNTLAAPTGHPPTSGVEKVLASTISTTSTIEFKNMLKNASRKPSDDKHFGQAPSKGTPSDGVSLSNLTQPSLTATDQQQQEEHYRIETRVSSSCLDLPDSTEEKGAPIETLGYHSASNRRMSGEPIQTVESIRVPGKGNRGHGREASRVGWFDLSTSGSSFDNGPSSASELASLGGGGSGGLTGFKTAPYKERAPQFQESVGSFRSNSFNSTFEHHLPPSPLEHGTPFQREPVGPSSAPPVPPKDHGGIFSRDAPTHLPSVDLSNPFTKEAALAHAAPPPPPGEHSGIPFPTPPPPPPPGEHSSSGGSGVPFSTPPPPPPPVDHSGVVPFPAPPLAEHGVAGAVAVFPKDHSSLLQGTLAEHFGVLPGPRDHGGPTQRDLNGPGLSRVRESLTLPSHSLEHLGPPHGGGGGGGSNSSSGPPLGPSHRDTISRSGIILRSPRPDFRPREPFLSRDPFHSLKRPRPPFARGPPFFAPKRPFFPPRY
UniProt O51418, sequence (whole entry, looked up): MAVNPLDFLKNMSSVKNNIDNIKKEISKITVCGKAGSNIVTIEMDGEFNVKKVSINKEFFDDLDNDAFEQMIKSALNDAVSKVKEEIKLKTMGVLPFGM

TTGTAATGAGTAGTGCATTTGCAATGGAGAGATTTTGGGGAGTTGTTTAAAATTACATTTGCGTTTTGTTAAAATGTAACAGCTGAATGTAACAAAATTATATATTTAAATCTTTGAAATATTGC (dsDNA)
binding (ebfC (Borreliella burgdorferi, UniProt O51418); EMSA; double-stranded DNA, one strand shown): binds

CATTTAGGGCTAAAGTCCTATGGTAACCTGA (dsDNA)
Kd (LiaR D191N (Enterococcus faecalis, UniProt R3G073); MST; double-stranded DNA, one strand shown): 0.37 ± 0.02 µM

SPKYSPTSPKYSPTSPKYS (RNA polymerase II CTD (Homo sapiens); phosphoserine S2)
Kd (RPRD1A CID, residues 2-137 (Homo sapiens, UniProt Q96P16); ITC; peptide; read off a plot): 1 µM

TTCGAAACGTGCGCGCCCATCGAATTCGAGCTCGGTACCC (dsDNA)
binding (D2 helicase 1-928; EMSA; double-stranded DNA, one strand shown; 0.1 nM, without ATP/Mg2+): no binding

TTCCTCATGCTTTAGCTAGAATCCCCTAGCTTTAGCTATGGGGAGTATGTCAACAAATTTGCCTAATGAC (ssDNA; hairpin)
binding (tnpA Y127F (Helicobacter pylori, UniProt Q933Z0); phenanthroline-copper footprinting; single-stranded DNA): binds

TTTTTTTTTTTTTTT (ssDNA)
Kd (DNA processing chain A (DprA) 5-217 (Helicobacter pylori, UniProt O25100); MST; single-stranded DNA): 18.4 ± 0.574 µM

B1 (ACE C-domain)
Km (CC(C)C[C@H](NC(=O)c1ccccc1N)C(=O)N[C@@H](Cc1ccccc1)C(=O)N[C@@H](CCCCNc1ccc([N+](=O)[O-])cc1[N+](=O)[O-])C(=O)O; steady-state kinetics; 37 °C): 10.6 µM

CGAATTCGAGCTCGGTACCC (dsDNA)
binding (D2 helicase 1-928; EMSA; double-stranded DNA, one strand shown; 0.1 nM, without ATP/Mg2+): no binding

TATTTAGTTAGATATCTAACTAAATA (dsDNA (Staphylococcus aureus); blunt, self-complementary)
Kd (MarR family regulatory protein full length assumed Q18P (Staphylococcus aureus, UniProt Q5Y812); ITC; double-stranded DNA, one strand shown): 61.4 µM

P1 K416Q
relative binding (WASL (Homo sapiens); co-IP; read off a plot; relative to: unchanged protein, higher = more binding): 1.9

RNA polymerase II CTD 19-residue peptide (Homo sapiens) (sequence not shown)
Kd (RPRD2 CID, to residue 161 (Homo sapiens, UniProt Q5VT52); ITC; read off a plot): 355 µM

AGAAATCGTTCTTAAGTCCTATGACA (dsDNA)
Kd (LiaR D50E/D191N (Enterococcus faecalis, UniProt R3G073); MST; double-stranded DNA, one strand shown): 3.63 ± 0.55 µM

A few entries again:
CATTTAGGGCTAAAGTCCTATGGTAACCTGA (dsDNA)
Kd (LiaR D191N (Enterococcus faecalis, UniProt R3G073); MST; double-stranded DNA, one strand shown): 0.37 ± 0.02 µM

SPKYSPTSPKYSPTSPKYS (RNA polymerase II CTD (Homo sapiens); phosphoserine S2)
Kd (RPRD1A CID, residues 2-137 (Homo sapiens, UniProt Q96P16); ITC; peptide; read off a plot): 1 µM
